# Experimental data collected from several papers.
# Lines come from different studies, so protocols differ. Values joined by “and” are separate records of one study, mostly repeats; a detail may differ. ± gives the spread as reported.
Structure (SMILES),cell line,assay,setting,how to read,endpoint,result
CCN(CC)CC(=O)Nc1cccc(-n2cc(-c3ccc4ccc(-c5cn(-c6cccc(NC(=O)CN(CC)CC)c6)nn5)cc4c3)nn2)c1,RCC4,"PCR angiogenesis array, refers to: LECT1","5 x IC50, 4 h, normoxia",relative to: untreated,fold regulation,1.06
CC(C)(C)c1cc(-c2ccc3cccnc3n2)nc(-c2ccc3cccnc3n2)c1.COc1ccncc1.[Cl-].[Cl-].[Ru+2].c1ccc2cc3nc4c5cccnc5c5ncccc5c4nc3cc2c1,A-375,"cytotoxicity, resazurin",dark,,EC50,64600 nM
Cn1c(=O)n(C2CCC(=O)NC2=O)c2ccc(C3CCN(CC(=O)Nc4cccc(CS(=O)(=O)N5CC[C@H](Nc6cccc(-c7sc(C(=O)O)c(OCC(=O)O)c7Cl)c6)CC5(C)C)c4)CC3)cc21 (stereo partly drawn),B16-F10,"HTRF, refers to: phospho-STAT1 Tyr701","10 µM, with: IFN-γ",relative to: min-max normalised,pSTAT1 level,84.4% and 86.9% and 88.2% and 91.9% and 65.2% and 80.5%
Cc1cc(C)nc(SCC(=O)Nc2ncc(Cc3cccc4ccccc34)s2)n1,PC-3M-luc,"cell viability, MTS",10 µM,,inhibition,12.1 ± 1.1%
CC#CC#C/C=C1/O[C@@]2(CCCCO2)[C@@H](O)[C@@H]1OC(C)=O,RAW264.7,Western blot,"concentration not given, with: LPS",,p38 phosphorylation,decreased
COc1ccc(NC(=O)c2ccc3[nH]c(-c4ccc(N(C)C)cc4)nc3c2)cn1,HCT116,IncuCyte,"concentration not given, 8 h",,dead cell to confluence ratio,22.5 and 32.2 and 7.7
Cc1ncsc1-c1ccc(C(C)NC(=O)C2CC(O)CN2C(=O)C(NC(=O)CCCCCCCCCCN2CCCC(Nc3ncc(Cl)c(Nc4ccccc4S(=O)(=O)C(C)C)n3)C2)C(C)(C)C)cc1 (stereo not drawn),22Rv1,"RNA-seq, refers to: ZNF75A mRNA",concentration not given,relative to: DMSO,log2 fold change,-2.12
COC(=O)[C@@]1(C)C=C(C(=O)Nc2cccc(C(=O)Nc3ccc(Nc4nccc(-c5cccnc5)n4)c(C)c3)c2)C(=O)CC1,AP1 reporter HEK293,"AP1 reporter gene, inhibitor","10 µM, 6 h, compound washed out, unit not given, with: PMA",relative to: PMA alone,reporter activity,0.119
C=CC(=O)N1CCCC(n2c(=O)c3ncccc3n(Cc3ccc(Oc4ccccc4)cc3)c2=O)C1 (stereo not drawn),OCI-Ly1,"cell growth or viability, MTT",72 h,,IC50,250 nM
COC(=O)c1cc(NC2=NC(=O)C(=Cc3ccc(C)cc3)S2)ccc1OC(C)=O,MCF7,"GC-MS, refers to: L-Leucine",1 µM,relative to: DMSO,metabolite level,-0.51 fold change
CCOc1cncc(-c2ccc(NC(=O)C3(c4ccnc(NS(=O)(=O)C5CC5)n4)CCOCC3)nc2)n1,MOLM-13,"cell proliferation, CellTiter-Glo",72 h,,IC50,76 nM
CN(C)c1ccc(-n2cc(COC(=O)[C@]3(C)C=C(C(=O)OC(C)(C)C)C(=O)CC3)nn2)cc1,AP-1 reporter HEK293,"AP-1 reporter gene, luciferase reporter","1 µM, 6 h, with: PMA 6 ng/mL",relative to: PMA alone,luminescence relative to PMA,0.761
O=C1c2c(O)cc(O)cc2-c2c(-c3ccc(O)cc3)oc3cc(O)cc1c23,LCC2 shControl,"label-free proteomics, refers to: SMTN",10 µM,relative to: DMSO,protein level ratio,6.7
Cc1ccc(-n2cc(CSc3nc4ccccc4n3Cc3cn(-c4ccc(C)cc4)nn3)nn2)cc1,HEK293,MTT,7.81 ppm,,cytotoxicity,13.8%
CN1CCCNC(=O)c2cccc(c2)C(=O)NCCCN(C)CCCNc2cccc3c2C(=O)c2cccc(c2C3=O)NCCC1,SAS,"RNA-Seq, refers to: MRPS27 mRNA","1 µM, 6 h",relative to: untreated cells,log2 fold change,-0.466
CNS(=O)(=O)Nc1nccc(Cc2c(C)c3ccc(Oc4ncccc4F)cc3oc2=O)c1F,EOL1,cell viability,7 days,,IC50,1.67 nM
Cn1ncc2cc(-c3cncc(Cl)c3N3CCC4(CCNC4=O)CC3)ccc21,LS174T,"gene expression, microarray, refers to: MAT2A mRNA","concentration not given, 4 h",relative to: untreated cells,log2 fold change,1.06
COC1=C2CC(C)CC(OC)C(O)C(C)C=C(C)C(OC(N)=O)C(OC)C=CC=C(C)C(=O)NC(=CC1=O)C2=O (stereo not drawn),Rh30,"ChIP-seq, refers to: H3K36me3 peak","concentration not given, promoter-TSS chr5:179011400-179051999",relative to: untreated control,log fold change,-0.511
Cn1ncc(-c2ccc3c(=O)[nH]nc(CN)c3c2)c1-c1c(F)c(Cl)cc(OC2CC2)c1C#N,EOL1,"cell viability, inhibitor, CellTiter-Glo","120 h, baseline-subtracted",,IC50,60 nM
CCN(C(=O)c1cc(F)ccc1Oc1nncnc1N1CCC2(C1)CN([C@H](CCCN(C)CCOC)C(C)C)C2)C(C)C,COLO 205,cell growth or viability,7 days,,GI50,> 10000 nM
Cc1cc(Cl)cc(-c2ccnc3cc(CN4C(=O)C5C(C4=O)C5(C)C)sc23)c1C[C@@H]1CNCCO1 (stereo partly drawn),CHP-212 parental,annexin V/PI flow cytometry,"0.3 µM, 48 h",,viable cells,54.4% and 61.6% and 67.2%
CC(C)c1ccc(N(C)c2ccc3c(c2)OCC[C@H]3CNc2cnccc2C(=O)O)cc1,DLD-1,"cell viability, CellTiter-Glo",7 days,,IC50,2.53 nM
Cc1ccncc1.[Cl-].[Cl-].[Ru+2].c1cc(-c2ccc3cccnc3n2)nc(-c2ccc3cccnc3n2)c1.c1ccc2cc3nc4c5cccnc5c5ncccc5c4nc3cc2c1,A-375,resazurin,"with: light 633 nm, 100 J/cm2",relative to: dark EC50 over light EC50,phototoxicity index,31
CC(=O)[O][Pd][c]1ccccc1-n1nc(C)cc1C.CC(=O)[O][Pd][c]1ccccc1-n1nc(C)cc1C,MDA-MB-231,FLICA flow cytometry,"25 µM, 24 h",,caspase-9 active cells,29.5 ± 1.9%
